# Measurements pooled from the literature.
# ± marks the error that the study gave.
# FYN isoform b: Tyrosine-protein kinase Fyn, isoform b (FYN, Homo sapiens, UniProt P06241)
# Chain of UniProt P06241 (whole entry, looked up): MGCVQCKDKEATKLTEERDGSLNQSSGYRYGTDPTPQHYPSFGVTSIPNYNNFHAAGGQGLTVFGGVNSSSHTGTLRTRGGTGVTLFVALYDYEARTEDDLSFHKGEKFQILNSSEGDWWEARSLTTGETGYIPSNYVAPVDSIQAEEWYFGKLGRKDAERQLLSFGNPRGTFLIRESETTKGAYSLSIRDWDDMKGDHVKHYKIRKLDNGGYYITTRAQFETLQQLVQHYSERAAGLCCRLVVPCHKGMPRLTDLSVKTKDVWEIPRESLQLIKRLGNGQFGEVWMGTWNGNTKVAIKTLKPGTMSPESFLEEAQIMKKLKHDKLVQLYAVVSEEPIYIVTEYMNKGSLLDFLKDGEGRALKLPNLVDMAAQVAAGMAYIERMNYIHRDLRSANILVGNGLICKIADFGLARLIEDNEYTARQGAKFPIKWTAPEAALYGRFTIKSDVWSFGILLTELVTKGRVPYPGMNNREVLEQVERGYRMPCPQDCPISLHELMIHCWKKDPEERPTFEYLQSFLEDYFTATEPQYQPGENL
# FYN: Tyrosine-protein kinase Fyn (FYN, Homo sapiens, UniProt P06241)
SMILES,target,test,setting,how to read,endpoint,result
[2H]c1cc(C)c(NC(=O)c2cnc(Nc3cc(N4CCC(O)CC4)nc(C)n3)s2)c(Cl)c1,FYN isoform b,,0.001 µM,,inhibition,> 50%
CC(=O)N[C@H](C(=O)N[C@@H](CC(N)=O)C(=O)N[C@@H](CCCCN)C(=O)N1CCC[C@H]1C(=O)N[C@@H](CC(C)C)C(=O)N1CCC[C@H]1C(=O)N1CCC[C@H]1C(=O)N[C@@H](CC(C)C)C(=O)N1CCC[C@H]1C(=O)N[C@H](C(=O)N[C@@H](C)C(N)=O)C(C)C)C(C)C,"Tyrosine-protein kinase Fyn, SH3 domain (FYN, Homo sapiens, UniProt P06241)","ligand binding, FTIR spectroscopy, refers to: asymmetric stretch band C","pH 7.0, FYN complex, with: 4 mM peptide",,peak area,12 ± 4%
C=CC(=O)N1CCC(COCC(=O)N2CCN(c3nc(-c4cnc(N)nc4C(F)F)nc(N4CCOC[C@@H]4C)n3)CC2)CC1,FYN,KINOMEscan,1 µM,,remaining binding,94%
Cc1nc(Nc2ncc(C(=O)Nc3c(C)cccc3Cl)s2)cc(N2CC[C@H](O)C2)n1,FYN,,0.001 µM,,inhibition,89%
CNc1ncc2c(/C=C/C(=O)N3CCC(OC)CC3)nn(Cc3cccc(C(F)(F)F)c3)c2n1,FYN,"kinase activity, inhibitor",1 µM,relative to: untreated control,remaining activity,91%
COc1ccc(F)cc1C(=O)NCc1ccc(-c2nn([C@@H](C)C(F)(F)F)c(N)c2C(N)=O)cc1,FYN,"kinase activity, inhibitor, HotSpot radiometric","100 nM, with: ATP 10 µM",,remaining activity,66.9 ± 1.2%
[2H]c1cc(C)c(NC(=O)c2cnc(Nc3cc(N4CCCCC4)nc(C)n3)s2)c(Cl)c1,FYN isoform b,,0.01 µM,,inhibition,> 90%
C=CC(=O)N1CCCN(C(=O)c2cc(Sc3cnc(NC(=O)C4CC4)s3)c(C)cc2OC)C[C@H]1C,FYN,"kinase activity, inhibitor",concentration not given,relative to: control,remaining activity,99%
C=CC(=O)N1CCC[C@@H](n2nc(-c3ccc(Oc4ccccc4)cc3)c3c(N)ncnc32)C1,FYN,"kinase activity, inhibitor, HotSpot radiometric","100 nM, with: ATP 10 µM",,remaining activity,17 ± 0.9%
Cc1cc(Nc2cc(N3CCN(C)CC3)nc(Sc3ccc(NC(=O)C4CC4)cc3)n2)[nH]n1,FYN,"kinase activity, KinaseProfiler","0.03 µM, species human",relative to: control,remaining activity,99%

# For quick reference, copied from above:
SMILES,target,test,setting,how to read,endpoint,result
CC(=O)N[C@H](C(=O)N[C@@H](CC(N)=O)C(=O)N[C@@H](CCCCN)C(=O)N1CCC[C@H]1C(=O)N[C@@H](CC(C)C)C(=O)N1CCC[C@H]1C(=O)N1CCC[C@H]1C(=O)N[C@@H](CC(C)C)C(=O)N1CCC[C@H]1C(=O)N[C@H](C(=O)N[C@@H](C)C(N)=O)C(C)C)C(C)C,"Tyrosine-protein kinase Fyn, SH3 domain (FYN, Homo sapiens, UniProt P06241)","ligand binding, FTIR spectroscopy, refers to: asymmetric stretch band C","pH 7.0, FYN complex, with: 4 mM peptide",,peak area,12 ± 4%
